{"data": "Measured values collected from several papers", "note": "A part holds a random share of what one study measured.", "sequence of UniProt P11362 (whole entry, looked up)": "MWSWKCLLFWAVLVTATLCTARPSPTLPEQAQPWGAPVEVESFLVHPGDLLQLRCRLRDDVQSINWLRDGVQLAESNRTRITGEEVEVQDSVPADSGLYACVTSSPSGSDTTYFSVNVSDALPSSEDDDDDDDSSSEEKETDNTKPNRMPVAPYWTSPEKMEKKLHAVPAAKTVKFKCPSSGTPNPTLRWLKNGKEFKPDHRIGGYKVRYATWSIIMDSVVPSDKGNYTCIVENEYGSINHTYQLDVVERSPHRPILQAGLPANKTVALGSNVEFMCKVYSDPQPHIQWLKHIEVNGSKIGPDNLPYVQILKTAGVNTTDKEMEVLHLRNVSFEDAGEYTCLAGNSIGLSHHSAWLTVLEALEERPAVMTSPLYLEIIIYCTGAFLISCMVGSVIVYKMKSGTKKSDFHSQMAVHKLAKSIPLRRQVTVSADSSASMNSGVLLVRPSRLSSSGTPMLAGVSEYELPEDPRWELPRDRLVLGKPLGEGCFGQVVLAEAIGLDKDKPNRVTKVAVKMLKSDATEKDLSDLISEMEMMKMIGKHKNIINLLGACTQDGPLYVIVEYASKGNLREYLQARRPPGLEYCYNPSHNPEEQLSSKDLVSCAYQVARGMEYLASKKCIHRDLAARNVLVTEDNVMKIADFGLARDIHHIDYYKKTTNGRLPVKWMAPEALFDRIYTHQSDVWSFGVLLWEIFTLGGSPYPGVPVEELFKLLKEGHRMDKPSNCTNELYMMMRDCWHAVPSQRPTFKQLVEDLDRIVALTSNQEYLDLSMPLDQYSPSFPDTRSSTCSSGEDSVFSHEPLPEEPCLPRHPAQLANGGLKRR", "sequence of UniProt Q9Y6E0 (whole entry, looked up)": "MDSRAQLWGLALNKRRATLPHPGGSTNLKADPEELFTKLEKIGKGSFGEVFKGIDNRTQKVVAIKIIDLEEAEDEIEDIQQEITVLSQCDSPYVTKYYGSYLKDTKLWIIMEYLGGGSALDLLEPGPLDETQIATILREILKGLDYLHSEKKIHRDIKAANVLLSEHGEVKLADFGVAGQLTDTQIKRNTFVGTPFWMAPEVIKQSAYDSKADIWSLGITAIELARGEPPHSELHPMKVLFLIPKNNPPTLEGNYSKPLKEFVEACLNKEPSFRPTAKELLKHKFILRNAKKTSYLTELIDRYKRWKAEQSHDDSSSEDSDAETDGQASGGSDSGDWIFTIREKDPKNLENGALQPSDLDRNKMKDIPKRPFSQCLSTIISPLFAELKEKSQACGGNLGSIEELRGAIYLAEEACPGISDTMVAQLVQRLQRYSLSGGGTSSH", "sequence of UniProt O75582 (whole entry, looked up)": "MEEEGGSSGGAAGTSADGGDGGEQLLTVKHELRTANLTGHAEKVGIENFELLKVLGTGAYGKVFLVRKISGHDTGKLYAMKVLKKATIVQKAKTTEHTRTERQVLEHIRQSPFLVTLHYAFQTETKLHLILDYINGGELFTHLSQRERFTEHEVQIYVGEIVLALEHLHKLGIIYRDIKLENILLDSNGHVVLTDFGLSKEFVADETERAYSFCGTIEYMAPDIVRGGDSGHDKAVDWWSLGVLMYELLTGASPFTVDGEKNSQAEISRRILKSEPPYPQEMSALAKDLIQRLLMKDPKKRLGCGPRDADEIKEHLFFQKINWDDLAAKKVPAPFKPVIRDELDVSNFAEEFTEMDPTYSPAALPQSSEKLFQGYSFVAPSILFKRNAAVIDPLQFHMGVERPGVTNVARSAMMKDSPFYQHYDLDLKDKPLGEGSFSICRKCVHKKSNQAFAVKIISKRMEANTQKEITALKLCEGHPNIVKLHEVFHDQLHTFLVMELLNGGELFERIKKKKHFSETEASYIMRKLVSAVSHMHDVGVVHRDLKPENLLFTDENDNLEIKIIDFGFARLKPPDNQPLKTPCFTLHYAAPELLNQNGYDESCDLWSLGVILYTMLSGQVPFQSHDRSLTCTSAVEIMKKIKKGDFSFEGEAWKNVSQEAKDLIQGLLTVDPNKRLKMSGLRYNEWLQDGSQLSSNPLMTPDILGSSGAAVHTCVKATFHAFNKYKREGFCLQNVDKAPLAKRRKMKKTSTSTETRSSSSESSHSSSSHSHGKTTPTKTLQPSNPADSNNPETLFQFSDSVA", "sequence of UniProt Q12866 (whole entry, looked up)": "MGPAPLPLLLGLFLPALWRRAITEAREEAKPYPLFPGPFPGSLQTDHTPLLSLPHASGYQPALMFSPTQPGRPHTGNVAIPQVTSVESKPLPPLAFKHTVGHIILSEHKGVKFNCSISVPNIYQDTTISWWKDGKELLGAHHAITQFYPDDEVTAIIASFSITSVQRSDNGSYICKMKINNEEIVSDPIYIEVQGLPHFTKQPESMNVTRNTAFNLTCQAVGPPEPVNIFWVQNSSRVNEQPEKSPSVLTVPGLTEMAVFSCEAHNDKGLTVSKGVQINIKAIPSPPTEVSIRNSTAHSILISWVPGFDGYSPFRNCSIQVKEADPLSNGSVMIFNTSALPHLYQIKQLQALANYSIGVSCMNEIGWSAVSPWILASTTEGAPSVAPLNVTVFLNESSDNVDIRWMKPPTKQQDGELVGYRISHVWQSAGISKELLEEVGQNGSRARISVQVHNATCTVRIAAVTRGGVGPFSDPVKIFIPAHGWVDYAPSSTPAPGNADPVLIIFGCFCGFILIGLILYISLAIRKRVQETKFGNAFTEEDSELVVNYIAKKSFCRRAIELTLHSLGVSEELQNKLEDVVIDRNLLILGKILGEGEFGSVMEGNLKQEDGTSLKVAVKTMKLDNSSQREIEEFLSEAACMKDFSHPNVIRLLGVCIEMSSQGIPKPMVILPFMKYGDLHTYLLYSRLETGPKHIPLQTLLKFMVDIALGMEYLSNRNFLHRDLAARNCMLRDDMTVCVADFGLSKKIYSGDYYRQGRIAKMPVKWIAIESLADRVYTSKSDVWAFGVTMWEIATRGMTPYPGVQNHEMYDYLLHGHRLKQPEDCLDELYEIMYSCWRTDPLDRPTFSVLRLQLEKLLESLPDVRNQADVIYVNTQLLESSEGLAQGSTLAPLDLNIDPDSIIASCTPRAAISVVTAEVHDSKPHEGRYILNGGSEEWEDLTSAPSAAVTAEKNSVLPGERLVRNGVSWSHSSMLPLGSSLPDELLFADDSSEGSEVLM", "sequence of UniProt Q9UL54 (whole entry, looked up)": "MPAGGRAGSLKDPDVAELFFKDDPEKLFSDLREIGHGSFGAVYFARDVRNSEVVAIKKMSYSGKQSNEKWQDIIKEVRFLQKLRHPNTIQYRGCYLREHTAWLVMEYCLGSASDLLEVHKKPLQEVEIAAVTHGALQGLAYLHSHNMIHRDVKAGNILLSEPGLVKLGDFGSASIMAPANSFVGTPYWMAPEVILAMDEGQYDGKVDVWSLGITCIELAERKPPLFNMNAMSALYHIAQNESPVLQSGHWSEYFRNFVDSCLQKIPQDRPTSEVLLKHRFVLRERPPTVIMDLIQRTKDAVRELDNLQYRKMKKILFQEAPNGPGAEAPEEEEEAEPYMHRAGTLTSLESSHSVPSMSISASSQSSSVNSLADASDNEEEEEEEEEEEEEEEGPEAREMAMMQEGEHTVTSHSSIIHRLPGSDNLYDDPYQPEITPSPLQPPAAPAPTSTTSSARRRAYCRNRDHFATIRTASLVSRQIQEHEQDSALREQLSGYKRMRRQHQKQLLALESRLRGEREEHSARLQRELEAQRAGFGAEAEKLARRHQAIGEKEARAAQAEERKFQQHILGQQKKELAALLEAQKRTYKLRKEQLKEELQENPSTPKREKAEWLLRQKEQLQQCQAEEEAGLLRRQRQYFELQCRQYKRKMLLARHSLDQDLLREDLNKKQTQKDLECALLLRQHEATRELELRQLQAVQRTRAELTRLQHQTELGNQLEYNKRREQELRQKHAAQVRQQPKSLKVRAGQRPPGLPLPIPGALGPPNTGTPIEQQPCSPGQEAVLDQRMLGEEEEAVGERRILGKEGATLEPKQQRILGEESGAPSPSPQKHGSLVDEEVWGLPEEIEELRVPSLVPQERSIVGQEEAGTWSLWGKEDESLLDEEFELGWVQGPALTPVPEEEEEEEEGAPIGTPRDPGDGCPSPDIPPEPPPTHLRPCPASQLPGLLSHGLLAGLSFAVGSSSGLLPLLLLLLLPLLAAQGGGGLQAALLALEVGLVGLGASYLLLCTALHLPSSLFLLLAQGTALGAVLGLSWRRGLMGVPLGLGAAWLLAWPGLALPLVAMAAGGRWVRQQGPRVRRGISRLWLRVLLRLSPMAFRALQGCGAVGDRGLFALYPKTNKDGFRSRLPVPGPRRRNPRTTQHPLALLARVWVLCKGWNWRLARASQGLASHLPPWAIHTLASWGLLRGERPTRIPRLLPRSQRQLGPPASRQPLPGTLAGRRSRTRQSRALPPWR", "sequence of UniProt Q9HC98 (whole entry, looked up)": "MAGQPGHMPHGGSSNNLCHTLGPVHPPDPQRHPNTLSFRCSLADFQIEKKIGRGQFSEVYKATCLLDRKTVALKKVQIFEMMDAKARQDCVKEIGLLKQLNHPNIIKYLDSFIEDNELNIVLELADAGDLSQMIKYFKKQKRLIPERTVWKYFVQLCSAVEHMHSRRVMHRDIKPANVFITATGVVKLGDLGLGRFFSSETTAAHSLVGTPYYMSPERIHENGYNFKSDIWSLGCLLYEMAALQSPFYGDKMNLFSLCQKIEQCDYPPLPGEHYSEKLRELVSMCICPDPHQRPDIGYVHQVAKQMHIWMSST"}
{"data": "Block 1", "target": "Myc proto-oncogene protein, bHLH-zipper, MAX partner unstated (MYC, Homo sapiens, UniProt P01106, residues 368-449)", "technique": "protein-binding microarray", "molecule type": "double-stranded DNA, one strand shown", "medium": "in vitro", "tested at": "not given", "notes": "k-mer, scored over probes, only values ≥0.25", "direction": "higher = stronger binding", "sequence of UniProt P01106 (368-449, looked up)": "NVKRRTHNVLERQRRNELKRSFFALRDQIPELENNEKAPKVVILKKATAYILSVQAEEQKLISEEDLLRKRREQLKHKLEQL"}
{"Oligonucleotide": "ACATGCTG", "E-score": 0.426}
{"Oligonucleotide": "GCGTGCCA", "E-score": 0.357}
{"Oligonucleotide": "ACGTGCGG", "E-score": 0.416}
{"Oligonucleotide": "AGGCGTGG", "E-score": 0.389}
{"Oligonucleotide": "CGTGCTAC", "E-score": 0.412}
{"Oligonucleotide": "CCACGCGA", "E-score": 0.431}
{"Oligonucleotide": "AGCACGCA", "E-score": 0.405}
{"Oligonucleotide": "ATGCTCAC", "E-score": 0.301}
{"data": "Block 2", "SMILES": "CSc1nc(-c2ccnc(N[C@@H](C)c3ccccc3)c2)c(-c2ccc(F)cc2)[nH]1 (racemic)", "read-out": "enzyme activity", "action": "inhibitor", "tested at": "0.5 µM", "reference": "control"}
{"target": "Serine/threonine-protein kinase TAO2 (TAOK2, Homo sapiens, UniProt Q9UL54)", "remaining activity": "92.7%"}
{"target": "Rhodopsin kinase GRK7 (GRK7, Homo sapiens, UniProt Q8WTQ7)", "remaining activity": "100%"}
{"target": "Mitogen-activated protein kinase kinase kinase 5 (MAP3K5, Homo sapiens, UniProt Q99683)", "remaining activity": "106%"}
{"target": "Tyrosine-protein kinase Mer (MERTK, Homo sapiens, UniProt Q12866)", "remaining activity": "93.1%"}
{"target": "Serine/threonine-protein kinase A-Raf (ARAF, Homo sapiens, UniProt P10398)", "remaining activity": "99%"}
{"target": "Dual specificity mitogen-activated protein kinase kinase 2 (MAP2K2, Homo sapiens, UniProt P36507)", "remaining activity": "78.6%"}
{"target": "Serine/threonine-protein kinase TBK1 (TBK1, Homo sapiens, UniProt Q9UHD2)", "remaining activity": "92%"}
{"target": "Serine/threonine-protein kinase Nek6 (NEK6, Homo sapiens, UniProt Q9HC98)", "remaining activity": "106%"}
{"target": "Angiopoietin-1 receptor (TEK, Homo sapiens, UniProt Q02763)", "remaining activity": "90.5%"}
{"target": "Fibroblast growth factor receptor 1 (FGFR1, Homo sapiens, UniProt P11362)", "remaining activity": "97.6%"}
{"target": "Ephrin type-A receptor 3 (EPHA3, Homo sapiens, UniProt P29320)", "remaining activity": "82.5%"}
{"target": "Casein kinase I isoform gamma-2 (CSNK1G2, Homo sapiens, UniProt P78368)", "remaining activity": "75.6%"}
{"target": "Tyrosine-protein kinase Lck (LCK, Homo sapiens, UniProt P06239)", "remaining activity": "102%"}
{"target": "Glycogen synthase kinase-3 beta (GSK3B, Homo sapiens, UniProt P49841)", "remaining activity": "97.9%"}
{"data": "Block 3", "target": "RING finger protein unkempt homolog, zinc fingers 1-6, SBP tag (UNK, Homo sapiens, UniProt Q9C0B0, residues 30-357)", "technique": "RNA Bind-n-Seq", "molecule type": "RNA", "medium": "in vitro", "tested at": "100 nM", "notes": "RNA with constant flanks, vertebrate orthologous sites, ends assumed", "reference": "input RNA pool", "direction": "higher = stronger binding", "sequence of UniProt Q9C0B0 (30-357, looked up)": "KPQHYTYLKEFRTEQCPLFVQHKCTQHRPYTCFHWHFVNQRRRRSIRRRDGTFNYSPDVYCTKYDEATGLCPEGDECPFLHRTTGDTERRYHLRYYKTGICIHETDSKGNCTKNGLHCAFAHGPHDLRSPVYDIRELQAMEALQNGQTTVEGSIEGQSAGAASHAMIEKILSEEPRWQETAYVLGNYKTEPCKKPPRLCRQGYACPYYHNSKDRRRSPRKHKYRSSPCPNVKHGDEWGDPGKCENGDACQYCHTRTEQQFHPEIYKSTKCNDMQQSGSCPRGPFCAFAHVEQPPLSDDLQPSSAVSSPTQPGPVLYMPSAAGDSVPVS"}
{"Oligonucleotide": "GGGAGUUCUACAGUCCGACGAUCAAGCCCUAGUUCUUGAACCAACACCCAUAAAAGAUUUAGAAAAAAGUUUACAACAUAAUCUAGUUUACGAAGACGCCUUGUGCUAGAAUACUUUUUAAAAAGUAUUUUUGAAUACCAUUACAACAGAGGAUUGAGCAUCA", "bound/input enrichment [ratio]": 0.741}
{"Oligonucleotide": "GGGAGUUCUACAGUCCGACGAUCAUGCCACCCCAGUUACUGCCACUGCCCACUUCCACAUCUCCUCCUUCACCCUCCUCUUGCACAAAUUAUGUAGGUGUCAAGUGAAUAAAGUGUGUGUGUCAAUGGAGCUGGCCUGUGCAGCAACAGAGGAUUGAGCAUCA", "bound/input enrichment [ratio]": 0.259}
{"Oligonucleotide": "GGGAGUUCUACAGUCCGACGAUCAGAGGGGCGAUAUUGAAUAGUAUUAAUAUUCUUGUCUUCCUUUACCUUUUGUCCCCUAAUACUUAGUCUUCUUAAAAUUUCAAACUUCACUGCACUUGGAAUUAGUAAUUCCAAUUUUCACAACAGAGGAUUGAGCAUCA", "bound/input enrichment [ratio]": 1.1}
{"Oligonucleotide": "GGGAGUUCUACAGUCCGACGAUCUAAAGUCAUUUUUUCACAUUUCCUGUAAAUAAUGGAUAAUCAUUUUUUUAUUUUAUUUUUAAGUGCUGUUUUAACAAUGUGGAUAGACCAUAAAUGUACUUGCUGAAUUCAUUCAUUUUUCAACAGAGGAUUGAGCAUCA", "bound/input enrichment [ratio]": 0.473}
{"Oligonucleotide": "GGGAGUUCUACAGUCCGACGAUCUUCAUUGUACUGCAGAAAUCAUCCUUCAUCUGGACUAGCCACAGUAAUCACUGUCUCUACUAGUAGAGUCAUUUACUAUUACCUUUGAAAUCAUCUGUUUUGUCAGAUAUCUGAAAAUGUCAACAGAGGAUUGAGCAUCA", "bound/input enrichment [ratio]": 0.587}
{"Oligonucleotide": "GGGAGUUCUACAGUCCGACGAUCUGUCGGGGGAGCCGGCGGAGUGGCGCUCUCCUCUCACUGUCCUUUCCUGGCUUCGCUUUUCUCGGGCGGGCCUGGGGUUGUGGCGCCCACUGACCCUGAGGCACGAGCUCUUGUGGUUCACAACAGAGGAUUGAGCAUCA", "bound/input enrichment [ratio]": 0.163}
{"Oligonucleotide": "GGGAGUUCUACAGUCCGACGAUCGUUGUGACCCAUUUAACAUACAUAAAAAAUUAGCCAAAAAAAAUUUGCAUGUAAUUGACUUAGAUGAUGCCACUUUUCUGAGUGCUAAAUUUGGAAGACAGCUUGUACCUGGUUGGAAGCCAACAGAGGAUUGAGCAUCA", "bound/input enrichment [ratio]": 1.44}
{"Oligonucleotide": "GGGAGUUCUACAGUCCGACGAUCAAGAACAGGAGCAGCAUAGACUGAGCUUUGGGGAAAUGAGCUUUGCUUUUUAUAUUUCAAUAGGAUACUUUUAUAUGAUGGGUGCUUUGAGUGUGAAUGCAGCAGGCUCUCCAUUUCAGACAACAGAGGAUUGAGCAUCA", "bound/input enrichment [ratio]": 1.39}
{"data": "Block 4", "SMILES": "CC1=C(C#N)[C@@H](c2ccc3[nH]nc(C)c3c2)C(C#N)=C(c2ccc(Cl)cc2)N1", "read-out": "cell-free assay", "technique": "competition with immobilised ligand", "tested at": "1 µM"}
{"target": "Serine/threonine-protein kinase 24 (STK24, Homo sapiens, UniProt Q9Y6E0)", "remaining binding [%]": 100}
{"target": "Mitotic checkpoint serine/threonine-protein kinase BUB1 (BUB1, Homo sapiens, UniProt O43683)", "remaining binding [%]": 100}
{"target": "ALK tyrosine kinase receptor (ALK, Homo sapiens, UniProt Q9UM73)", "remaining binding [%]": 84.7}
{"target": "Ribosomal protein S6 kinase alpha-5, C-terminal kinase domain (RPS6KA5, Homo sapiens, UniProt O75582)", "remaining binding [%]": 100}
{"target": "Leucine-rich repeat serine/threonine-protein kinase 2 (LRRK2, Homo sapiens, UniProt Q5S007, G2019S)", "remaining binding [%]": 79.5}
{"note": "Repeated from above (block 3):"}
{"Oligonucleotide": "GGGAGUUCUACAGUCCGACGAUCAUGCCACCCCAGUUACUGCCACUGCCCACUUCCACAUCUCCUCCUUCACCCUCCUCUUGCACAAAUUAUGUAGGUGUCAAGUGAAUAAAGUGUGUGUGUCAAUGGAGCUGGCCUGUGCAGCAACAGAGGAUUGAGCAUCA", "bound/input enrichment [ratio]": 0.259}
{"Oligonucleotide": "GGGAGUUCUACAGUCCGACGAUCAGAGGGGCGAUAUUGAAUAGUAUUAAUAUUCUUGUCUUCCUUUACCUUUUGUCCCCUAAUACUUAGUCUUCUUAAAAUUUCAAACUUCACUGCACUUGGAAUUAGUAAUUCCAAUUUUCACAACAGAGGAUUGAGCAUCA", "bound/input enrichment [ratio]": 1.1}
{"Oligonucleotide": "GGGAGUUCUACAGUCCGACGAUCUAAAGUCAUUUUUUCACAUUUCCUGUAAAUAAUGGAUAAUCAUUUUUUUAUUUUAUUUUUAAGUGCUGUUUUAACAAUGUGGAUAGACCAUAAAUGUACUUGCUGAAUUCAUUCAUUUUUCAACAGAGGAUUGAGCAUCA", "bound/input enrichment [ratio]": 0.473}
{"Oligonucleotide": "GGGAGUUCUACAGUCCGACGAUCUUCAUUGUACUGCAGAAAUCAUCCUUCAUCUGGACUAGCCACAGUAAUCACUGUCUCUACUAGUAGAGUCAUUUACUAUUACCUUUGAAAUCAUCUGUUUUGUCAGAUAUCUGAAAAUGUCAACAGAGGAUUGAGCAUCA", "bound/input enrichment [ratio]": 0.587}
{"Oligonucleotide": "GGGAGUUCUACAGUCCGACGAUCUGUCGGGGGAGCCGGCGGAGUGGCGCUCUCCUCUCACUGUCCUUUCCUGGCUUCGCUUUUCUCGGGCGGGCCUGGGGUUGUGGCGCCCACUGACCCUGAGGCACGAGCUCUUGUGGUUCACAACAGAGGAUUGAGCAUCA", "bound/input enrichment [ratio]": 0.163}
